Results from different studies.
Compare with care: the assays were run in different laboratories. Values joined by “and” are separate records of one study, mostly repeats; a detail may differ. ± marks the error that the study gave.
IDE: Insulin-degrading enzyme (IDE, Homo sapiens, UniProt P14735)

Compound = O=C1NC(=O)/C(=C/c2ccc3ncnc(N4CCC(F)(F)CC4)c3n2)S1; test system = NSG mice; setting = dose not given, day 5; measurement = body weight; result = 14.7 g and 15.5 g and 13.9 g and 20.9 g
Compound = O=C(O)CSc1nnc(Br)n1-c1ccc(C2CC2)c2ccccc12; test system = KM mouse, chronic hyperuricaemia model; setting = dose not given, day 20; measurement = body weight; result = 31.2 g and 35.8 g and 32 g and 39.4 g and 34.6 g and 37.4 g
Compound = COc1cccc2c1C(=O)c1c(O)c3c(c(O)c1C2=O)C[C@@](O)(C(=O)CO)C[C@@H]3O[C@H]1C[C@H](NC(=O)[C@@H]2CCCN2C(=O)CN)[C@H](O)[C@H](C)O1; test system = healthy mouse, plasma; setting = intravenous, 23.6 mg/kg PhAc-ALGP-Dox; measurement = Cmax; result = 110 ± 33 nM
Compound = COc1ccc(CNc2nc(-c3ccc(C(=O)O)cc3)nc3c2c2ccccc2n3C)cc1Cl; test system = NSG mice; setting = dose not given, day 5; measurement = body weight; result = 24.9 g and 21 g and 25.4 g and 24.2 g
Compound = C1=C/COCc2cc(ccc2OCCN2CCCC2)Nc2nccc(n2)-c2cccc(c2)COC/1; test system = BALB/c mice, rhEPO-induced polycythemia; setting = 120 mg/kg, day 4; measurement = body weight; result = 19.9 g and 18.1 g and 19.1 g and 18.9 g and 18.8 g and 18 g
Compound = Cc1ccccc1-c1ccc([C@H]2[C@@H](CO)N3CCCCN(S(C)(=O)=O)C[C@@H]23)cc1; target or system = IDE; test = enzyme activity, inhibitor, fluorogenic kinetic; setting = together with: Mca-RPPGFSAFK(Dnp)-OH substrate; measurement = EC50; result = > 100 µM
Compound = COc1cc(N2CCC(N3CCN(C)CC3)CC2)ccc1Nc1ncc(Cl)c(Nc2ccccc2P(C)(C)=O)n1; test system = nude mice, NCI-H3122 xenograft; setting = intraperitoneal, 10 mg/kg every other day, day 5; measurement = body weight; result = 23 g and 23.7 g and 23.3 g and 20.9 g and 25 g
Compound = Cc1cccc(-c2ccc([C@@H]3[C@@H](CO)N4CCCCN(S(=O)(=O)c5cccc(C)c5)C[C@@H]34)cc2)c1; target or system = IDE; test = enzyme activity, inhibitor, fluorogenic kinetic; setting = together with: Mca-RPPGFSAFK(Dnp)-OH substrate; measurement = EC50; result = 1 µM
Compound = CCCCc1nc2cc(/C=C/C(=O)NO)ccc2n1CCN(CC)CC; test system = mouse, MV4-11 xenograft; setting = 50 mg/kg daily, day 21; how to read = reference: baseline; measurement = body weight; result = 92.9%
Compound = Cc1nc(-c2ccc(OCC(C)C)c(C#N)c2)sc1C(=O)O; test system = KM mouse, chronic hyperuricaemia model; setting = dose not given, day 25; measurement = body weight; result = 33.4 g and 38.2 g and 41 g and 35.6 g and 39.4 g and 44.2 g
Compound = COc1ccc(CNc2nc(-c3ccc(C(=O)O)cc3)nc3sc4ccccc4c23)cc1Cl; test system = NSG mice; setting = dose not given, day 4; measurement = body weight; result = 18 g and 21.3 g and 20 g and 19.4 g
Compound = Cc1cnc(Nc2ccc(OCCN3CCCC3)cc2)nc1Nc1cccc(S(=O)(=O)NC(C)(C)C)c1; test system = BALB/c mice, rhEPO-induced polycythemia; setting = 120 mg/kg, day 3; measurement = body weight; result = 19.4 g and 18.4 g and 18.9 g and 19.5 g and 18.8 g

Some of these lines once more:
Compound = O=C1NC(=O)/C(=C/c2ccc3ncnc(N4CCC(F)(F)CC4)c3n2)S1; test system = NSG mice; setting = dose not given, day 5; measurement = body weight; result = 14.7 g and 15.5 g and 13.9 g and 20.9 g
